{"data": "Results gathered from unrelated publications", "target": "Cytochrome P450 2C9 (CYP2C9, Homo sapiens, UniProt P11712)", "note": "Protocols differ between the studies behind these lines. Several values in a cell are separate wells, animals, samples, runs or records. Numbers after ± are the reported error.", "sequence of UniProt P11712 (whole entry, looked up)": "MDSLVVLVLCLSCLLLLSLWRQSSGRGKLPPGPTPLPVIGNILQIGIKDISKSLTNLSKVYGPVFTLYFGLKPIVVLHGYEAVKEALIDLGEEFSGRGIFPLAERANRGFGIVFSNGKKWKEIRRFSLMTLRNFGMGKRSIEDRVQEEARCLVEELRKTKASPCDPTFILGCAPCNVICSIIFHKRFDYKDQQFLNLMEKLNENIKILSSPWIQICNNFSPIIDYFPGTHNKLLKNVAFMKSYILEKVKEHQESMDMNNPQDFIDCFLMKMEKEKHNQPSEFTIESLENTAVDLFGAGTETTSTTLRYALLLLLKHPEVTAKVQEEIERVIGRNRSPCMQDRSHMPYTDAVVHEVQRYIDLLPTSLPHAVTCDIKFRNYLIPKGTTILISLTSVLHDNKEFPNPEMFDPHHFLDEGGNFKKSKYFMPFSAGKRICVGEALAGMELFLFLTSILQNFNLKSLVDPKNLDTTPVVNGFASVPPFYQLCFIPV"}
{"Structure (SMILES)": "CCOc1cc(-c2nncn2C)ccc1Nc1ncc2cc(C)nc(NCC(C)(C)C)c2n1", "effect on": "enzyme activity", "action": "inhibitor", "IC50": "10 to 50 µM"}
{"Structure (SMILES)": "Cc1noc(C)c1-c1ccc2nc(-c3cnn(CC(C)(C)O)c3)nc(N3CCOC[C@@H]3c3ccccc3)c2c1", "IC50": "2.1 µM"}
{"Structure (SMILES)": "COc1cc(O)c(CC=C(C)C)c2c1C(=O)CC(c1ccc(O)cc1)O2 (stereo not shown)", "effect on": "enzyme activity", "action": "inhibitor", "sample": "human liver microsomes", "pH": "pH 7.4", "together with": "tolbutamide", "IC50": "2.1 ± 0.3 µM"}
{"Structure (SMILES)": "Cc1nc(-c2cnc(NC(C)C)n(C)c2=O)ccc1Oc1ccnc(-c2cnn(C)c2)c1", "effect on": "time-dependent inhibition", "action": "inhibitor", "setting": "30 min preincubation without NADPH", "IC50": "84 µM"}
{"Structure (SMILES)": "COc1cc(O)c(CC=C(C)C)c(O)c1C(=O)/C=C/c1ccc(O)cc1", "effect on": "enzyme activity", "action": "inhibitor", "sample": "human liver microsomes", "pH": "pH 7.4", "together with": "tolbutamide", "IC50": "3.3 ± 0.4 µM"}
{"Structure (SMILES)": "N#Cc1ccc([C@H]2CCc3cncn32)c(F)c1", "action": "inhibitor", "pH": "pH 7.4", "IC50": "≥ 20 µM and 40 µM"}
{"Structure (SMILES)": "COc1ccc(Cc2nc(NC(=O)C34CC5CC(CC(C5)C3)C4)n(C)c2Cc2ccc(OC)c(OC)c2)cc1", "IC50": "97.8 ± 23.3 µM"}
{"Structure (SMILES)": "CCCCCNC(=N)N/N=C/c1c[nH]c2ccc(OC)cc12", "effect on": "enzyme activity", "action": "inhibitor", "together with": "MFC substrate", "IC50": "7.9 µM"}
{"Structure (SMILES)": "Cc1cc(OC2COC2)cc(C(=O)Nc2ccc(F)cn2)n1", "action": "inhibitor", "IC50": "> 30 µM"}
{"Structure (SMILES)": "N#Cc1ccc(Nc2nc(N)cc(Oc3c(F)cc(-c4ccc(C#N)cc4)cc3F)n2)cc1", "sample": "human liver microsomes", "together with": "diclofenac 50 µM", "IC50": "14.6 ± 2.7 µM"}
